Experimental data collected from several papers.
B1: NFR5 276-595 (Lotus japonicus, UniProt Q70KR1); chain ALNRTASSAETADKLLSGVSGYVSKPNVYEIDEIMEATKDFSDECKVGESVYKANIEGRVVAVKKIKEGGANEELKILQKVNHGNLVKLMGVSSGYDGNCFLVYEYAENGSLAEWLFSKSSGTPNSLTWSQRISIAVDVAVGLQYMHEHTYPRIIHRDITTSNILLDSNFKAKIANFAMARTSTNPMMPKIDVFAFGVLLIELLTGRKAMTTKENGEVVMLWKDMWEIFDIEENREERIRKWMDPNLESFYHIDNALSLASLAVNCTADKSLSRPSMAEIVLSLSFLTQQSSNPTLERSLTSSGLDVEDDAHIVTSITAR
B2: pnp 1-763 R112A (Mycobacterium smegmatis, UniProt A0QVQ5); chain MSVVELEDGVYESTAVIDNGSFGTRTIRFETGRLAQQAAGSAVAYLDDETMLLSATTASKNPKDHFDFFPLTVDVEERMYAAGRIPGSFFRREGRPSTDAILTCRLIDRPLAPSFVDGLRNEIQVVVTVMSLDPKDLYDVLAINAASMSTQLAGLPFSGPVGGARIALIDGTWVAFPTVEQLERAVFDMVVAGRIVGDGDSADVAIMMVEAEATENVVELVAGGAQAPTEAVVAEGLEAAKPFIKALCAAQQELADRAAKPAGEYPVFPDYEADVYDAVASVATEALAEALTIAGKTERNDRTDEIKVEVLERLAEPYAGREKEIGAAFRSLTKKLVRQRILTDHFRIDGRGITDIRALSAEVAVIPRAHGSALFERGETQILGVTTLDMIKMAQQIDSLGPENTKRYMHHYNFPPYSTGETGRVGSPKRREIGHGALAERALVPVLPSIEEFPYAIRQVSEALGSNGSTSMGSVCASTLALLNAGVPLKAPVAGIAMGLVSDDVDVDGKVEKRYVALTDILGAEDAFGDMDFKVAGTKDFVTALQLDTKLDGIPSQVLAGALSQAKDARLTILDVMAEAIDRPDEMSPYAPRITTIKVPVDKIGEVIGPKGKMINSITEETGAQISIEDDGTVFVGAADGLSAQAAIDKINAIANPQLPKVGERFLGTVVKTTDFGAFVSLLPGRDGLVHISKLGKGKRIAKVEDVVKVGDKLRVEIADIDNRGKISLVLVAEESAESAESAGDKGAEKAEGAAADVTPAEA
B3: ANPEP 66-967 (Homo sapiens, UniProt P15144); chain DQSKAWNRYRLPNTLKPDSYRVTLRPYLTPNDRGLYVFKGSSTVRFTCKEATDVIIIHSKKLNYTLSQGHRVVLRGVGGSQPPDIDKTELVEPTEYLVVHLKGSLVKDSQYEMDSEFEGELADDLAGFYRSEYMEGNVRKVVATTQMQAADARKSFPCFDEPAMKAEFNITLIHPKDLTALSNMLPKGPSTPLPEDPNWNVTEFHTTPKMSTYLLAFIVSEFDYVEKQASNGVLIRIWARPSAIAAGHGDYALNVTGPILNFFAGHYDTPYPLPKSDQIGLPDFNAGAMENWGLVTYRENSLLFDPLSSSSSNKERVVTVIAHELAHQWFGNLVTIEWWNDLWLNEGFASYVEYLGADYAEPTWNLKDLMVLNDVYRVMAVDALASSHPLSTPASEINTPAQISELFDAISYSKGASVLRMLSSFLSEDVFKQGLASYLHTFAYQNTIYLNLWDHLQEAVNNRSIQLPTTVRDIMNRWTLQMGFPVITVDTSTGTLSQEHFLLDPDSNVTRPSEFNYVWIVPITSIRDGRQQQDYWLIDVRAQNDLFSTSGNEWVLLNLNVTGYYRVNYDEENWRKIQTQLQRDHSAIPVINRAQIINDAFNLASAHKVPVTLALNNTLFLIEERQYMPWEAALSSLSYFKLMFDRSEVYGPMKNYLKKQVTPLFIHFRNNTNNWREIPENLMDQYSEVNAISTACSNGVPECEEMVSGLFKQWMENPNNNPIHPNLRSTVYCNAIAQGGEEEWDFAWEQFRNATLVNEADKLRAALACSKELWILNRYLSYTLNPDLIRKQDATSTIISITNNVIGQGLVWDFVQSNWKKLFNDYGGGSFSFSNLIQAVTRRFSTEYELQQLEQFKKDNEETGFGSGTRALEQALEKTKANIKWVKENKEVVLQWFTENSK
B4: ureR N117S (Escherichia coli, UniProt P32326); chain MEYKFFLSESQMVLKAFYIESAMIAMLTGAKGNIVINGQSIEIESDVTLIIPKYSQVSCNIVCNTVKQPLELHTLSMSAEELQAVFLLLKTLMKSGAPLTSHQPIYHISPPETVRDSFSLLKQCLPLKKQSASQEALLMKQSLYFILMAIYQEGIDILNLFRFNYDEPKNQAITHLITQEPQKKWHLDDVAKALFTTPSTLRRHLNREGVSFRQLLLDVRMGMALNYLTFSNYSVFQISHRCGFGSNAYFCDVFKRKYNMTPSQFRLQSRQSNDPNFITNLSLRSNPIEFDKEIDE
B5: glnR 120-223 (Saccharopolyspora erythraea, UniProt A4FQD5); chain EGDGMLTVGDLVIEESTYTARLKGRALELTYKEFELLKYLAQHAGRVFTRAQLLQEVWGYDFFGGTRTVDVHVRRLRAKLGPEYDSMIGTVRNVGYKFVRPSRS
B6: protein R140A (Pseudomonas putida, UniProt A0ABM7EIE4); sequence looked up; chain MLRILLIDDTQHKLGRLKAALIEAGFEVTEAPGLTIDLPACVETVRPDVVLIDTDSPDRDVMEQVVLVSRDQPRPIVLFTDEHDPGVMRQAIQAGVSAYIVEGIHAARLQPILDVAMARFESDQALKAQLVARDQQLAEAKRIEQAKGLLMKMKDCNEEQAYTLMRRQAMSRQQKLIQVAEQIIAMHEMLG
B7: coat protein self-assembled VLP (bacteriophage Qβ, UniProt P03615); chain AKLETVTLGNIGKDGKQTLVLNPRGVNPTNGVASLSQAGAVPALEKRVTVSVSQPSRNRKNYKVQVKIQNPTACTANGSCDPSVTRQAYADVTFSFTQYSTDEERAFVRTELAALLASPLLIDAIDQLNPAY
B8: pomB 1-315 D24N (Vibrio alginolyticus, UniProt O06874); chain MDDEDNKCDCPPPGLPLWMGTFANLMSLLMCFFVLLLSFSEMDVLKFKQIAGSMKFAFGVQNQLEVKDIPKGTSIIAQEFRPGRPEPTPIDVIMQQTMDITQQTLEFHEGESDRAGGTKRDEGKLTGGQSPATSTQNNESAEADMQQQQSKEMSQEMETLMESIKKALEREIEQGAIEVENLGQQIVIRMREKGAFPEGSAFLQPKFRPLVRQIAELVKDVPGIVRVSGHTDNRPLDSELYRSNWDLSSQRAVSVAQEMEKVRGFSHQRLRVRGMADTEPLLPNDSDDNRALNRRVEISIMQGEPLYSEEVPVIQ
B9: coat protein 2-133 (bacteriophage Qβ, UniProt P03615); chain AKLETVTLGNIGKDGKQTLVLNPRGVNPTNGVASLSQAGAVPALEKRVTVSVSQPSRNRKNYKVQVKIQNPTACTANGSCDPSVTRQAYADVTFSFTQYSTDEERAFVRTELAALLASPLLIDAIDQLNPAY
B10: mpr D188A (Mycobacterium smegmatis, UniProt Q50442); chain MTTPQPYPGMPSQPAPQGVPYPPQQPAKKKRKWPAIVGGVIALMIVGSIFNDDKKDTTPAENTATVAQAPAAAPTKEVPETTATINTPVRDGKFEFVVRSVEPGLSEVGDNPFLNQKAQGQFVIVTLSVQNIGDRPQGFSPSNQKLFDTEGRSFETDTSAQIALDNNDIAVWDNINPGNTVDVSLVYAMPVDAVPASIELHDSMFSGGVTVNLTP
B11: pnp 1-763 R430A (Mycobacterium smegmatis, UniProt A0QVQ5); chain MSVVELEDGVYESTAVIDNGSFGTRTIRFETGRLAQQAAGSAVAYLDDETMLLSATTASKNPKDHFDFFPLTVDVEERMYAAGRIPGSFFRREGRPSTDAILTCRLIDRPLRPSFVDGLRNEIQVVVTVMSLDPKDLYDVLAINAASMSTQLAGLPFSGPVGGARIALIDGTWVAFPTVEQLERAVFDMVVAGRIVGDGDSADVAIMMVEAEATENVVELVAGGAQAPTEAVVAEGLEAAKPFIKALCAAQQELADRAAKPAGEYPVFPDYEADVYDAVASVATEALAEALTIAGKTERNDRTDEIKVEVLERLAEPYAGREKEIGAAFRSLTKKLVRQRILTDHFRIDGRGITDIRALSAEVAVIPRAHGSALFERGETQILGVTTLDMIKMAQQIDSLGPENTKRYMHHYNFPPYSTGETGRVGSPKAREIGHGALAERALVPVLPSIEEFPYAIRQVSEALGSNGSTSMGSVCASTLALLNAGVPLKAPVAGIAMGLVSDDVDVDGKVEKRYVALTDILGAEDAFGDMDFKVAGTKDFVTALQLDTKLDGIPSQVLAGALSQAKDARLTILDVMAEAIDRPDEMSPYAPRITTIKVPVDKIGEVIGPKGKMINSITEETGAQISIEDDGTVFVGAADGLSAQAAIDKINAIANPQLPKVGERFLGTVVKTTDFGAFVSLLPGRDGLVHISKLGKGKRIAKVEDVVKVGDKLRVEIADIDNRGKISLVLVAEESAESAESAGDKGAEKAEGAAADVTPAEA
B12: XPR1 (Homo sapiens, UniProt Q9UBH6); sequence looked up; chain MKFAEHLSAHITPEWRKQYIQYEAFKDMLYSAQDQAPSVEVTDEDTVKRYFAKFEEKFFQTCEKELAKINTFYSEKLAEAQRRFATLQNELQSSLDAQKESTGVTTLRQRRKPVFHLSHEERVQHRNIKDLKLAFSEFYLSLILLQNYQNLNFTGFRKILKKHDKILETSRGADWRVAHVEVAPFYTCKKINQLISETEAVVTNELEDGDRQKAMKRLRVPPLGAAQPAPAWTTFRVGLFCGIFIVLNITLVLAAVFKLETDRSIWPLIRIYRGGFLLIEFLFLLGINTYGWRQAGVNHVLIFELNPRSNLSHQHLFEIAGFLGILWCLSLLACFFAPISVIPTYVYPLALYGFMVFFLINPTKTFYYKSRFWLLKLLFRVFTAPFHKVGFADFWLADQLNSLSVILMDLEYMICFYSLELKWDESKGLLPNNSEESGICHKYTYGVRAIVQCIPAWLRFIQCLRRYRDTKRAFPHLVNAGKYSTTFFMVTFAALYSTHKERGHSDTMVFFYLWIVFYIISSCYTLIWDLKMDWGLFDKNAGENTFLREEIVYPQKAYYYCAIIEDVILRFAWTIQISITSTTLLPHSGDIIATVFAPLEVFRRFVWNFFRLENEHLNNCGEFRAVRDISVAPLNADDQTLLEQMMDQDDGVRNRQKNRSWKYNQSISLRRPRLASQSKARDTKVLIEDTDDEANT

B1 (NFR5 276-595) — binding (itself; native gel): binds
B2 (pnp 1-763 R112A) — binding (itself; SEC): binds
B3 (ANPEP 66-967) — binding (itself; cryo-EM): binds
B4 (ureR N117S) — binding (itself; SEC): binds
B5 (glnR 120-223) — binding (itself; crystal structure): binds
B6 (protein R140A) — binding (itself; SEC): binds
B7 — binding (itself; transmission electron microscopy): binds
B8 (pomB 1-315 D24N) — binding (itself; cryo-EM structure): binds
insulin human — fold change (refers to: NEGR1 mRNA; EcoHIV-infected mouse, brain; i.p., dose not given; baseline: PBS): 1.25
B9 (coat protein 2-133) — binding (itself; transmission electron microscopy): binds
B10 (mpr D188A) — binding (itself; cross-linking; added: GTP): binds
B11 (pnp 1-763 R430A) — binding (itself; SEC): binds
B12 (XPR1) — binding (itself; cryo-EM): binds

A few entries again:
B8 (pomB 1-315 D24N) — binding (itself; cryo-EM structure): binds
